Assay results pooled from the literature.
Protocols differ between the studies behind these lines. Several values in a cell are separate wells, animals, samples, runs or records. ± gives the spread as reported.
UniProt P51956, sequence (whole entry, looked up): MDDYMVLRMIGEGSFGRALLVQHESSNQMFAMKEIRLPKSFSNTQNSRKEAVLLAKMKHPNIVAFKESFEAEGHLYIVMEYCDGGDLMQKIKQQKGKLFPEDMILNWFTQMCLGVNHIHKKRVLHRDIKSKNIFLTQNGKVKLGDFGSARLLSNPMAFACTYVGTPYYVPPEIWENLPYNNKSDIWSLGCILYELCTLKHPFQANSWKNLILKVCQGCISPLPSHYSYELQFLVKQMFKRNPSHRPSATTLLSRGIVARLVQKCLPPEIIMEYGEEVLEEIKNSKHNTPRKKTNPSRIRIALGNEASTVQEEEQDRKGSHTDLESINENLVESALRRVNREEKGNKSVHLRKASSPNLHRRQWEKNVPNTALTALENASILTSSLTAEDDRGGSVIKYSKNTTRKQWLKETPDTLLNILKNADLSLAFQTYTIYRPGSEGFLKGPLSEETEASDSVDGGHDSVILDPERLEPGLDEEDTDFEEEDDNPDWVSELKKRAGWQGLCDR
UniProt Q9UNQ0, sequence (whole entry, looked up): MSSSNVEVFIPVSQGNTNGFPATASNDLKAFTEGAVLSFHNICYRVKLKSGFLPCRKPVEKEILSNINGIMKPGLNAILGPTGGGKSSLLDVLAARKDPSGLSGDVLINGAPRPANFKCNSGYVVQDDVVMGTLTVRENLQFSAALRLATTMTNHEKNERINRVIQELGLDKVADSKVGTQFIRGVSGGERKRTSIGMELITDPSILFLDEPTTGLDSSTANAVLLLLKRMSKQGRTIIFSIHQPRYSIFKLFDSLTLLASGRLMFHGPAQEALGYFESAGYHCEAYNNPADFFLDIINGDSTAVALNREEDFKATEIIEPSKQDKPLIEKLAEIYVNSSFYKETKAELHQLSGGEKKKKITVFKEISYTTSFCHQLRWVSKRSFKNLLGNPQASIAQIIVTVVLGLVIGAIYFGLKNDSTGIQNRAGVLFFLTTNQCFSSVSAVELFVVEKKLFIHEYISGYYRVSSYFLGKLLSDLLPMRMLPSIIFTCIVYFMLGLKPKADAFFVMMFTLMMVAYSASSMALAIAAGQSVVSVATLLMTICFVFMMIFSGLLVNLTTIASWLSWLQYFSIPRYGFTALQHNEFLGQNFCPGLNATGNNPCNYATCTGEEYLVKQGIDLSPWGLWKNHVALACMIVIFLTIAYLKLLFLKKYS

The viability of Cc1ccc(OCCN(C)C)cc1C(=O)N[C@H](C)c1cc(-c2cnn(CC(C)(C)O)c2)nc2ccccc12 is reported as 100% and 87.1% (Vero E6; 125 µM).
With CS(C)(=O)=Nc1ccc(-c2ccc(-c3nc4cc(O[C@@H]5CO[C@H]6[C@@H]5OC[C@H]6O)[nH]c4cc3F)cc2)cc1 the inhibition was 1% (NEK3 (Homo sapiens, UniProt P51956); enzyme activity, inhibitor; 10 µM).
For CN(C)CCCNC(=O)[C@@H]1NC(=O)[C@@H]2Cc3ccc(cc3)Oc3cc4cc(c3O)-c3ccc5c(c[nH]c5c3)C[C@@H](NC(=O)C(NC(=O)CCCCCN)c3ccc(O)cc3)C(=O)N[C@H](c3ccc(O)cc3)C(=O)N[C@H]4C(=O)N[C@@H](C(=O)N2C)c2ccc(cc2)Oc2cc1ccc2O (stereo partly drawn), the hemolysis was 1.42% (human red blood cells; 128 µg/mL, 1 h, 37 °C, 1% DMSO).
With CN(C)c1ccc(-c2nc3ccccc3n2CCCOc2ccccc2)cc1 the IC50 was greater than 10 µM (CHO; cytotoxicity; 3 days).
NC[C@]1(CC(=O)O)CC[C@H]([18F])CC1: “time to peak brain uptake” roughly 3.8 min (PET; rhesus monkey, brain; intravenous, baseline scan).
Under “cells in sub-G0 phase”, Cc1cc(C(=O)Nc2nc3cccc(C)c3n2[C@H]2CCCCN(C(=O)/C=C/CN(C)C)C2)ccn1 is recorded as 5.38% (Trypanosoma brucei; propidium iodide flow cytometry; bloodstream form; concentration not given, 72 h).
The relative abundance of COc1ccccc1-c1n[nH]c2nc(NC3CCN(C(=O)Cc4ccc(F)cc4F)CC3)ncc12 is reported as 1.11 (bead binding, competition bead pull-down, item: LMJF.28.2750; Leishmania donovani axenic amastigote extract; 10 µM; relative to: vehicle).
Cc1nc2cccc(OCC(C)(C)C(=O)NC(C)C)c2c(N)c1C(=O)[O-].[Na+] gave a revertant colonies of 13 ± 4 colonies/plate (Salmonella typhimurium; Ames plate incorporation; TA1535; 0.32 mg/plate, together with: with rat liver S9).
The Papp of O=C1CC[C@@]2(O)[C@H]3Cc4ccc(O)c5c4[C@@]2(CCN3CCc2ccccc2)[C@H]1O5 is reported as 48.8 ×10⁻⁶ cm/s (PAMPA-BBB; porcine brain lipid; 500 µM, 4 h, pH 7.4, 1% DMSO).
The efflux ratio of CC(=O)NCCCC[C@@H]1NC(=O)[C@H](Cc2c[nH]c3c(C)cccc23)NC(=O)[C@H]([C@@H](C)O)NC(=O)[C@H](CC(N)=O)NC(=O)[C@@H](NC(C)=O)C(C)(C)SSC(C)(C)[C@@H](C(=O)N[C@@H](Cc2ccc(OCCN)cc2)C(=O)N[C@@H](Cc2ccc3ccccc3c2)C(=O)NC2(C(=O)N[C@@H](CCC(=O)O)C(=O)N[C@@H](CC(N)=O)C(=O)N[C@@H](Cc3cccnc3)C(=O)N(C)CC(N)=O)CCOCC2)NC1=O is reported as 10.6 (ABCG2 (Homo sapiens, UniProt Q9UNQ0); transport, inhibitor; LLC-PK1 expressing ABCG2; 0.182 µM, 90 min, together with: [3H]prazosin).
CCn1ccc(-c2cc([C@@H](C)NC(=O)c3cc(N4CCN(C)CC4)ccc3C)c3ccccc3n2)n1 gave a viability of 1.8% and 0.898% (Vero E6; 125 µM).
CC[C@H](C)[C@H](NC(=O)[C@H](CO)NC(=O)[C@H](Cc1ccc(O)cc1)NC(=O)[C@H](Cc1ccc(O)cc1)NC(=O)[C@H](CC(N)=O)NC(=O)CNC(=O)[C@H](CO)NC(=O)[C@H](Cc1ccc(O)cc1)NC(=O)[C@H](CO)NC(=O)[C@H](CO)NC(=O)[C@H](CC(N)=O)NC(=O)COCCOCCNC(=O)CN1CCN(CC(=O)O)CCN(CC(=O)O)CCN(CC(=O)O)CC1)C(=O)N[C@@H](CC(C)C)C(N)=O [copper-64 labelled] — result for “maximum pancreas uptake”: 16.2 %IA/cc (dynamic PET; tamoxifen-induced PDAC mouse model, pancreas; 17.5 min, CLDN4-expressing tumours).
With CC(C)(C)C(=O)OCOP(=O)(OCOC(=O)C(C)(C)C)C1CCCN(O)C1=O (stereo not drawn) the log GI50 was -6.22 log M (COLO 205).
COc1ccccc1-c1n[nH]c2nc(N[C@H]3CC[C@H](NS(=O)(=O)CC(C)C)CC3)ncc12 gave a relative abundance of 0.78 (bead binding, competition bead pull-down, item: LINJ.25.1850; Leishmania donovani extract; 10 µM; relative to: vehicle).
CCn1ccc(-c2cc([C@@H](C)NC(=O)c3cc(N4CCN(C)[C@H](C)C4)ccc3C)c3ccccc3n2)n1 has a viability of 1.91% and 0.716% and 2.15% (Vero E6; 500 µM).
O=C1NC2(CC2)COc2ncc(F)cc2[C@H]2COCCN2c2ccn3ncc1c3n2: “serum LDH activity” 768 ± 64 U/L (Sprague-Dawley rat, female, serum; oral, 5 mg/kg/day, end of recovery, 4-week subacute toxicity).
Cc1ccc(OCCN(C)C)cc1C(=O)N[C@H](C)c1cc(-c2cccs2)nc2ccccc12 has a viability of 5.96% and 6.73% (Vero E6; 125 µM).
With CC[C@H](C)[C@H](NC(=O)[C@H](CCCCN)NC(=O)CNC(=O)[C@H](CC(C)C)NC(=O)[C@H](Cc1ccccc1)NC(=O)[C@H](CCCCN)NC(=O)[C@H](CO)NC(=O)[C@H](Cc1ccccc1)NC(=O)[C@H](Cc1c[nH]c2ccccc12)NC(=O)[C@H](CCC(N)=O)NC(=O)[C@@H](NC(=O)[C@H](Cc1ccccc1)NC(=O)CCCCCNC(=O)CN1CCN(CC(=O)O)CCN(CC(=O)O)CCN(CC(=O)O)CC1)C(C)C)C(=O)N[C@@H](CCC(=O)O)C(=O)N1CCC[C@H]1C(=O)N[C@H](CC(=O)O)C(=O)N[C@H](C(=O)N[C@@H](CO)C(=O)N[C@@H](CCC(N)=O)C(=O)N[C@H](C(=O)N[C@@H](CCC(N)=O)C(=O)N[C@@H](CC(=O)O)C(=O)N1CCC[C@H]1C(=O)N[C@@H](CC(N)=O)C(=O)N[C@@H](CC(=O)O)C(=O)N[C@@H](CCC(N)=O)C(=O)N[C@@H](Cc1ccc(O)cc1)C(=O)N[C@@H](CCC(=O)O)C(=O)N1CCC[C@H]1C(=O)N[C@@H](Cc1ccccc1)C(=O)O)C(C)C)C(C)C [copper-64 labelled] the tissue uptake was 2.22 ± 0.5 %ID/g (C57BL/6 mice, male, MC-38 tumour-bearing, tumor; 2 h, checkpoint inhibitor-treated).

For quick reference, copied from above:
Under “cells in sub-G0 phase”, Cc1cc(C(=O)Nc2nc3cccc(C)c3n2[C@H]2CCCCN(C(=O)/C=C/CN(C)C)C2)ccn1 is recorded as 5.38% (Trypanosoma brucei; propidium iodide flow cytometry; bloodstream form; concentration not given, 72 h).
